Experimental data from different studies.
Each line is one published result; not all experiments were run side by side. ± marks the error that the study gave. Converted amounts (≈) assume the structure as drawn. Where no end group is shown, it is not given here. [ ]: non-standard residue; d: D form.
B1: UGT1A9 (Homo sapiens, UniProt O60656); chain GKLLVVPMDGSHWFTMRSVVEKLILRGHEVVVVMPEVSWQLGRSLNCTVKTYSTSYTLEDLDREFKAFAHAQWKAQVRSIYSLLMGSYNDIFDLFFSNCRSLFKDKKLVEYLKESSFDAVFLDPFDNCGLIVAKYFSLPSVVFARGILCHYLEEGAQCPAPLSYVPRILLGFSDAMTFKERVRNHIMHLEEHLLCHRFFKNALEIASEILQTPVTEYDLYSHTSIWLLRTDFVLDYPKPVMPNMIFIGGINCHQGKPLPMEFEAYINASGEHGIVVFSLGSMVSEIPEKKAMAIADALGKIPQTVLWRYTGTRPSNLANNTILVKWLPQNDLLGHPMTRAFITHAGSHGVYESICNGVPMVMMPLFGDQMDNAKRMETKGAGVTLNVLEMTSEDLENALKAVINDKSYKENIMRLSSLHKDRPVEPLDLAVFWVEFVMRHKGAPHLRPAAHDLTWYQYHSLDVIGFLLAVVLTVAFITFKCCAYGYRKCLGKKGRVKKAHKSKTH

Substance | tested on | test | system | conditions | scale | quantity | result
V[dF]IA (D-Phe2) | PC-12 | protection from Aβ1–42 toxicity, MTT |  | concentration not given, 6 h, Aβ to peptide ratio 1:5, together with: Aβ1–42 2 µM | baseline: untreated cells | cell viability | 71.5%
COc1ccc(-c2nc3ccccc3s2)cc1OCc1nnc(-c2ccc([N+](=O)[O-])cc2)o1 |  | hind limb tonic extension | albino mouse, MES-induced seizure | ip, 0.5 h |  | minimal effective dose | 30 mg/kg
Cc1cc(-c2nnc(N)nc2-c2ccc(F)cc2)cc(Cl)n1 |  |  | human mCRPC, high blood adenosine signature | dose not given, monotherapy or plus durvalumab |  | median progression-free survival | 21 weeks
Cc1cnc(-c2ccnc(C(C)(C)O)n2)cc1-n1c(C)cc(OCc2ncc(F)cc2F)c(Cl)c1=O |  | IL-6 release, inhibitor | human, whole blood, ex vivo | plasma concentration, together with: LPS |  | IC80 | 0.748 µg/mL (≈ 1.46 µM)
Insulin human |  | ELISA | rat, ventral cortex | intranasal, 20 µg per nostril, 120 min |  | concentration | 5.4 ± 1.4 pg/mg tissue
gamma-MSH |  |  | Sprague Dawley rat, urethane-anaesthetised | intravenous, 15 nmol |  | time to peak MAP response | 38.5 ± 2.3 min
Nc1nnc(-c2cccc(Cl)c2Cl)c(N)n1 |  | spontaneous generalized tonic-clonic seizures | Scn1a+/- mice | oral in chow, 125 mg/kg chow, 60 h, subchronic from P18, video P22-P24 |  | seizure frequency | 6.9 ± 1.6 seizures/day
COc1cccc2c1C(=O)c1c(O)c3c(c(O)c1C2=O)C[C@@](O)(C(=O)CO)C[C@@H]3O[C@H]1C[C@H](N)[C@H](O)[C@H](C)O1 |  |  | mice, BT-474 xenograft | intraperitoneal, 1.5 mg/kg, week 7, after sixth treatment | baseline: pretreatment | tumour volume | 80.4 ± 46.5%
Cc1c2ccccc2c(C)c2c1ccc1ccccc12 |  | inducer | female rat, liver | oral, 1 mg, 24 h, sesame oil vehicle |  | menadione reductase activity | 30 enzyme units
C[C@H]1C[C@H]2CSC(N)=N[C@@]2(c2nc(NC(=O)c3ccc(OC(F)F)cn3)cs2)CO1 |  | item: CSF Aβx-38 | healthy adults | 125 mg once daily, 14 days, day 15 | baseline: placebo-adjusted baseline | change from baseline | -79.5%
LRKLRKRLLRDWLKAFYDKVAEKLKEAF (N-acetyl, C-amide) |  | Oil Red O en face | peptide, female apoE-null mice, aorta | retro-orbital, 100 µg three times weekly, 6 weeks | baseline: control group | aortic lesion area | decreased
COc1ccc(-c2nc3ccccc3s2)cc1OCc1nnc(-c2c(C)cccc2C)o1 |  | hind limb tonic extension | albino mouse, MES-induced seizure | ip, 0.5 h |  | minimal effective dose | 100 mg/kg
COCCc1ccc(OCC(O)CNC(C)C)cc1 (centres unmarked) |  | western blot | rats, adrenaline arrhythmia, myocardium | intragastric, 2.57 g/kg daily, 14 days, unit not given | baseline: GAPDH | Cx43 protein level | 0.49 ± 0.05
V[dA]IA (D-Ala2) | PC-12 | protection from Aβ1–42 toxicity, MTT |  | concentration not given, 6 h, Aβ to peptide ratio 1:1, together with: Aβ1–42 2 µM | baseline: untreated cells | cell viability | 70%
CC(C)(O)c1ccccc1-c1ccc2[nH]c(/C=C/c3ccc(C(F)(F)F)cc3)nc2c1 |  |  | human | max heat pain detection threshold |  | plasma concentration | ≥ 100 ng/mL
COc1ccc(-c2nnc(COc3cc(-c4nc5ccccc5s4)ccc3OC)o2)cc1 |  | seizure protection | albino mouse, scPTZ-induced seizure | ip, 4.0 h |  | minimal effective dose | 300 mg/kg
CC(/C=C/C(=O)NO)=C\[C@@H](C)C(=O)c1ccc(N(C)C)cc1 |  | inhibitor, ELISA | wild-type mice, serum | dose not given, 2 h after LPS, daily dosing from day -2, LPS on day 0, together with: LPS | baseline: LPS-treated vehicle | serum IL-1β reduction | 79%
COc1cc(CCOC(=O)/C=C/c2ccc(O)c(O)c2)ccc1O |  | DPPH | ethanol | 20 µM, 30 min, room temperature |  | radical scavenging | 60%
CC(C(=O)O)c1ccc(-c2ccccc2)c(F)c1 (centres unmarked) |  |  | rat, carrageenan paw edema | oral, 2 mg/kg |  | time of maximum edema inhibition | ≤ 2 h
O=C1c2c(O)cc(O)cc2O[C@H](c2cc(O)c(O)c(O)c2)[C@H]1O |  |  | rat, intermittent ethanol access | oral in drinking fluid, 0.05 mg/mL, end of week 7 |  | ethanol intake | 1.8 ± 1 g/kg/day
COc1ccc(-c2nc3ccccc3s2)cc1OCc1nnc(Cc2ccccc2)o1 |  | hind limb tonic extension | albino mouse, MES-induced seizure | ip, 0.5 h |  | minimal effective dose | 100 mg/kg
B1 (UGT1A9) | O=c1cc(-c2ccc(O)cc2)oc2cc(O)cc(O)c12 | steady-state kinetics |  | pH 7.4, 37 °C |  | Vmax/Km | 1700 µL/min/mg
Cc1c(OCC(F)(F)F)ccnc1C[S@@+]([O-])c1nc2ccccc2[nH]1 |  |  | healthy human | oral, single dose, 60 mg, modified release, 12 to 24 h, crossover vs esomeprazole |  | mean intragastric pH | 4.5
